Measured values of several laboratories.
Several values in a cell are separate wells, animals, samples, runs or records.
CDK3 with cyclin E: Cyclin-dependent kinase 3, with cyclin E (CDK3, Homo sapiens, UniProt Q00526)
Sequence of UniProt Q00526 (whole entry, looked up): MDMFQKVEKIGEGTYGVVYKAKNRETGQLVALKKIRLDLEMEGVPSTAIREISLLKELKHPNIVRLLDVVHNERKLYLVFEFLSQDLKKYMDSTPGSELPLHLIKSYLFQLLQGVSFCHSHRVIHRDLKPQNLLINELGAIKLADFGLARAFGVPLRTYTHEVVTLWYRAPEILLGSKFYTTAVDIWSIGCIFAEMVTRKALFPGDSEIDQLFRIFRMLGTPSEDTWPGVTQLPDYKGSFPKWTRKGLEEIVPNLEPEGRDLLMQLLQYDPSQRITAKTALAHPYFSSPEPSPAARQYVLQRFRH
CDK3: Cyclin-dependent kinase 3 (CDK3, Homo sapiens, UniProt Q00526)
CDK3 with cyclin E1: Cyclin-dependent kinase 3, with cyclin E1 (CDK3, Homo sapiens, UniProt Q00526)

`CNC(=O)C[C@H](Cc1ccc(C#N)cc1)NC(=O)c1cc(-c2ccc(CN[C@H](C)c3ccc(C)cc3)o2)ccc1Cl` — result for “activity vs control”: 107% (CDK3 with cyclin E; enzyme activity, inhibitor; 1 µM).
`CN1CCN(Cc2ccc(NC(=O)c3cccc(C#Cc4cnc(N)c5ncccc45)c3)cc2C(F)(F)F)CC1` gave a remaining binding of 100% (CDK3; cell-free assay, competition with immobilised ligand; 0.5 µM).
`Cc1cccc(O[C@H]2CCC[C@@H](C(C)CNCc3ccncc3)C2)c1` (relative stereo) has an inhibition of -7% (CDK3 with cyclin E; kinase activity, kinome panel screening; 10 µM).
`Cc1cc(C)nc(Nc2ccc([C@@H]3CCCN(C(=O)/C=C/c4c(C)nn(C)c4C)C3)nc2)n1` — result for “activity vs control”: 102% (CDK3; enzyme activity, inhibitor, ADP detection; 1 µM).
`COc1ccc(NC(=O)Nc2ccc3c(c2)C(=O)N(C(C)CO)CC(C)C(CN(C)Cc2ccc4c(c2)OCO4)O3)cc1` (stereo not drawn) has a remaining binding of 76% (CDK3; binding, competition with immobilised ligand; 10 µM).
`COCC12C(=O)NC3C4(C(OC)CC1O)C1CC5(O)C(OC)C(O)C(OC(C)=O)(C1C5OC(=O)c1ccccc1)C3(O)C(OC)C24` (stereo not drawn) gave a remaining activity of 89% and 109% (CDK3 with cyclin E; kinase activity, inhibitor, ProQinase kinase profiling; 25 µM; reference: control).
With `C=C1CCCCCCCCCC(CO)C1=O` (stereo not drawn) the remaining binding was 100% (CDK3; cell-free assay, competition with immobilised ligand; 10 µM).
`NC(=O)C[C@H]1CCc2sc3ncnc(O[C@H]4CC[C@H](N5CCOCC5)CC4)c3c21` gave an inhibition of 2% (CDK3 with cyclin E; enzyme activity, inhibitor; 10 µM).
The inhibition of `CN1CC[C@@H](COc2cnc(C#N)cc2-c2ccn3nc(NC(=O)C4CC4)cc3c2)C1` is reported as 3% (CDK3 with cyclin E; enzyme activity, inhibitor; 1 µM).
With `COc1c(OCCCN2CCOCC2)ccc2c1N=C(NC(=O)c1cnc(N)nc1)N1CCN=C21` the remaining activity was 109% (CDK3 with cyclin E; kinase activity, inhibitor; 1 µM; reference: untreated control).
For `C=CC(=O)N1CCc2ccc(-n3c(=O)ccc4cnc5ccc(-c6cnn(C)c6)cc5c43)cc21`, the remaining binding was 100% (CDK3; KINOMEscan; 1 µM; reference: DMSO control).
For `Cc1cnc2nc1Nc1cccc(c1)COC/C=C/COCc1cc(ccc1OCCN1CCOCC1)N2`, the remaining signal was 96% (CDK3; cell-free assay; 0.1 µM).
For `O=C(Cc1ccc(OCc2ccccc2)cc1)NC1(C(=O)O)CCN(C(=O)c2ccc(-c3cccc(Cl)c3)cc2)CC1`, “activity vs control” read 132% (CDK3 with cyclin E; enzyme activity, inhibitor; 10 µM).
For `CN1CCN(Cc2ccc(-c3ccc(CO[C@H]4CCC[C@@H]4NC(=O)c4cc(-c5cnn(C)c5)cnc4N)cc3)cc2)CC1`, the inhibition was -10% (CDK3 with cyclin E1; enzyme activity, inhibitor; 0.1 µM).
The remaining binding of `CC(=O)N1c2ccc(-c3ccc(CNC(=O)c4cn5cc(-c6cnc(N)nc6)nc(N6CCOCC6)c5n4)cc3)cc2CC[C@@H]1C` is reported as 100% (CDK3; KINOMEscan; 10 µM).
`C=CC(=O)Nc1cccc(-c2cnc3[nH]cc(C(=O)NC(C)(C)C)c3n2)c1` has an inhibition of 12% (CDK3 with cyclin E; enzyme activity, inhibitor; 0.1 µM).
The remaining activity of `O=c1c(-c2ccc(Cl)c(CN3CCOCC3)c2)coc2cc(O)ccc12` is reported as 94% (CDK3 with cyclin E; enzyme activity, inhibitor; 1 µM).
`CN1C[C@@H](c2c[nH]c3cc(Br)ccc23)NC[C@@H]1c1c[nH]c2cc(Br)ccc12` gave a remaining activity of 100% (CDK3 with cyclin E1; enzyme activity, inhibitor; 10 µM).
With `CCN1CCN(Cc2ccc(C(=O)Nc3ccc(C)c(NCc4cnc5[nH]ccc5c4OC)c3)cc2C(F)(F)F)CC1` the remaining binding was 95% (CDK3; binding, competition with immobilised ligand; 1 µM).
For `CCc1nnc(Nc2cnc([C@@H]3CCCN(C(=O)CCc4cccnc4)C3)cn2)s1`, “activity vs control” read 97% (CDK3; enzyme activity, inhibitor, ADP detection; 1 µM).
The remaining activity of `O=C=[N][Ru-4]123([n]4c5ccc(O)cc5c5c6c(c7cc(F)c[n+]1c7c54)C(=O)NC6=O)[S+]1CC[S+]2CC[S+]3CC1` (stereo not drawn) is reported as 119% (CDK3 with cyclin E; enzyme activity; 100 nM, human enzyme, added: 10 µM ATP; reference: untreated).

A few entries again:
`CN1CCN(Cc2ccc(NC(=O)c3cccc(C#Cc4cnc(N)c5ncccc45)c3)cc2C(F)(F)F)CC1` gave a remaining binding of 100% (CDK3; cell-free assay, competition with immobilised ligand; 0.5 µM).
For `O=C(Cc1ccc(OCc2ccccc2)cc1)NC1(C(=O)O)CCN(C(=O)c2ccc(-c3cccc(Cl)c3)cc2)CC1`, “activity vs control” read 132% (CDK3 with cyclin E; enzyme activity, inhibitor; 10 µM).
